Assay results from different studies.
Parts stem from different laboratories: compare values within a part only.

Series 1 — method: RNA Bind-n-Seq; molecule type: RNA; sample: in vitro; concentration: 365 nM; reference: no-protein control; direction: higher = stronger binding
Target: RNA binding protein fox-1 homolog 2, RRM domain, GST-SBP tag (RBFOX2, Homo sapiens, UniProt O43251-10, residues 100-194)
Setting: natural RNA segment, single round, ends assumed
Residues (chain): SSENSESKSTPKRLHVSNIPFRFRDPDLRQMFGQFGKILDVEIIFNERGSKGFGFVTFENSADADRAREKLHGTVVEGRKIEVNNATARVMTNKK
Sequence | RBNS enrichment (R)
GGGAGUUCUACAGUCCGACGAUCCAUUAUAUAGCAGAAAUAACUACUGUAUAAUUCUUGGGGUUAACCAUCUUUAGUUAAUGGAAUUUUAAUUUAAAUGAAGCUUUGCUAAUUUUAAGUGGUAAGCAUUUUGCUGGAAUUCUCGGGUGCCAA | 0.355
GGGAGUUCUACAGUCCGACGAUCUUGUAGGGCCUUGCUGCCAGGGGGCAGGGAUGCUUUCCAGCCUGCAGCAACAGAACACUUGACCUUAAAAGUCUCUUCUGGUCUUUGGAUUAGAAAAGGCUUAUGUUAGCUGGAAUUCUCGGGUGCCAA | 0.194
GGGAGUUCUACAGUCCGACGAUCGUCAAGGGCAAGCUGGAGUUAAUAAUCUAUAUUUAUUUGACUCAGCACUGUUUUCAUCACAACUUGUUUUCCCAGCAUCAUGUAGUGCAUUUAGUUUUGUCUUUCUCAGGUGGAAUUCUCGGGUGCCAA | 1.53

Series 2 — method: protein-binding microarray; molecule type: double-stranded DNA, one strand shown; sample: in vitro; concentration: 0.8 µM; setting: whole 60-bp probe, no competitor; direction: higher = stronger binding
Target: Centromere-binding protein 1, full length, N-terminal tag (CBF1, Saccharomyces cerevisiae, UniProt P17106, residues 1-351)
Chain of UniProt P17106 (whole entry, looked up): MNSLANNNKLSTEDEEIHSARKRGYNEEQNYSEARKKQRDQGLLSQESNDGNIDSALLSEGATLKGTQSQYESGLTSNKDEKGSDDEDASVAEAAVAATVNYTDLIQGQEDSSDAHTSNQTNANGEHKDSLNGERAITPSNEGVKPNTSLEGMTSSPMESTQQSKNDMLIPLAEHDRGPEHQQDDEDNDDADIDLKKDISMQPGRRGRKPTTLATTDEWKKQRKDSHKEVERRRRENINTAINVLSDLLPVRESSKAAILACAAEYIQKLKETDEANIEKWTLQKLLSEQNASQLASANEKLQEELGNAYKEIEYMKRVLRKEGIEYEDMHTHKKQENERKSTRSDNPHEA
Sequence | fluorescence intensity
GAATCGGAAAGTTGGAACGTGCGCGATTGCACCTAGGTCTTGATTCGCTTGACGCTGCTG | 599 a.u.
CTATGCGATAAATTTAACGTGCTTCTGATCAGGTTCGTCTTGATTCGCTTGACGCTGCTG | 587 a.u.
GAATCTAGTTTTCAACATGTGGTGGCTTGTTCTTAGGTCTTGATTCGCTTGACGCTGCTG | 594 a.u.

Series 3 — method: protein binding microarray; molecule type: double-stranded DNA, one strand shown; sample: in vitro; concentration: not given; reference: not given; direction: higher = stronger binding
Target: Histone acetyltransferase KAT6A, winged helix 2, GST fusion (KAT6A, Homo sapiens, UniProt Q92794, residues 85-181)
Setting: 8-mer, flanks averaged, mean of 2 arrays, mostly near background
Construct (chain): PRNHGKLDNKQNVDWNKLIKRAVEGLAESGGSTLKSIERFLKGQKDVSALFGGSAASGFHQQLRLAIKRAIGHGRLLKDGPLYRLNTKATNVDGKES
Sequence | E-score
GGCATACC | 0.000495
GGGTTAAC | 0.0936
CGCCACCA | -0.0391
ATTTAATA | 0.255
GCCGAACA | 0.124

Mixed results
Molecule | target | assay | system | conditions | how to read | quantity | value
PhoQ, residues 284 288 289 292 302 303 AAQSYM | PhoP, residues 12 14 15 18 19 STHWV (Escherichia coli, UniProt P23836) | Sort-seq, refers to: YFP reporter | E. coli | PhoQ-PhoP variant library, with: 10 µM Mg2+ | reference: high Mg2+ state, higher = stronger signaling | fold induction | 7.76
